Published values collected from several papers.
Several values in a cell are separate wells, animals, samples, runs or records. ± marks the error that the study gave.
CALM1 Ca2+-bound N-lobe: Calmodulin-1, Ca2+-bound N-lobe (CALM1, Homo sapiens, UniProt P0DP23)
RORC: Nuclear receptor ROR-gamma (RORC, Homo sapiens, UniProt P51449)
UniProt P51449, sequence (whole entry, looked up): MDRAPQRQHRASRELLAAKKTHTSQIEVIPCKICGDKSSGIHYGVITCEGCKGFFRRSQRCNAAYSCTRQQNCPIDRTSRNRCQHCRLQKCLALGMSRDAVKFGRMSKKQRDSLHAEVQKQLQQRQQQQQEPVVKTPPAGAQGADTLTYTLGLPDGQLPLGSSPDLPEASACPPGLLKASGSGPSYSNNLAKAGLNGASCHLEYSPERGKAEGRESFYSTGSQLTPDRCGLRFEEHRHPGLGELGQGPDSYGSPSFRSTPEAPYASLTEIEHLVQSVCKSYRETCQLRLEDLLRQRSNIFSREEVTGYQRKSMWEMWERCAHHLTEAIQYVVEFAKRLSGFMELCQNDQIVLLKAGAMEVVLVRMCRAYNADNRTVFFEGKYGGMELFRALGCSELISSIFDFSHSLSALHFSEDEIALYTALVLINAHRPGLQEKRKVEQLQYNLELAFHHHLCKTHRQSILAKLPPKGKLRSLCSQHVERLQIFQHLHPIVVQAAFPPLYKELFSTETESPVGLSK
ESR1: Estrogen receptor (ESR1, Homo sapiens, UniProt P03372)
UniProt P03372, sequence (whole entry, unmodified, looked up): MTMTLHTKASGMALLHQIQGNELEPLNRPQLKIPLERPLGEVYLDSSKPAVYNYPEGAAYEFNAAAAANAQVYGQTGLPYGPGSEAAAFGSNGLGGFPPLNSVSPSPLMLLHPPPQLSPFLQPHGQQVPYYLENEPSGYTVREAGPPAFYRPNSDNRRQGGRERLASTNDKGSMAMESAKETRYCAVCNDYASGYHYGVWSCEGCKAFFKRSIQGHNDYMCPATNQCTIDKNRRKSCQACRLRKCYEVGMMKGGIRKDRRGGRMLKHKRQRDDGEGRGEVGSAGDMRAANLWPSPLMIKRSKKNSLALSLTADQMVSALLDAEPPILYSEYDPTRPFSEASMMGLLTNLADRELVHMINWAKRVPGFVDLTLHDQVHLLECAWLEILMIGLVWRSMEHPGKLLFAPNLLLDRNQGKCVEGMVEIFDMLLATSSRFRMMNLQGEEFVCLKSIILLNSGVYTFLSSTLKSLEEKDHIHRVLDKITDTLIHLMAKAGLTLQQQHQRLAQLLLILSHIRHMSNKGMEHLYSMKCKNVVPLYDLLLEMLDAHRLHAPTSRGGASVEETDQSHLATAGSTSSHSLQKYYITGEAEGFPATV
WD repeat-containing protein 91 WD40 domain, residues 392–747: WD repeat-containing protein 91, WD40 domain, residues 392–747 (Homo sapiens, UniProt A4D1P6)
UniProt A4D1P6, sequence (whole entry, looked up): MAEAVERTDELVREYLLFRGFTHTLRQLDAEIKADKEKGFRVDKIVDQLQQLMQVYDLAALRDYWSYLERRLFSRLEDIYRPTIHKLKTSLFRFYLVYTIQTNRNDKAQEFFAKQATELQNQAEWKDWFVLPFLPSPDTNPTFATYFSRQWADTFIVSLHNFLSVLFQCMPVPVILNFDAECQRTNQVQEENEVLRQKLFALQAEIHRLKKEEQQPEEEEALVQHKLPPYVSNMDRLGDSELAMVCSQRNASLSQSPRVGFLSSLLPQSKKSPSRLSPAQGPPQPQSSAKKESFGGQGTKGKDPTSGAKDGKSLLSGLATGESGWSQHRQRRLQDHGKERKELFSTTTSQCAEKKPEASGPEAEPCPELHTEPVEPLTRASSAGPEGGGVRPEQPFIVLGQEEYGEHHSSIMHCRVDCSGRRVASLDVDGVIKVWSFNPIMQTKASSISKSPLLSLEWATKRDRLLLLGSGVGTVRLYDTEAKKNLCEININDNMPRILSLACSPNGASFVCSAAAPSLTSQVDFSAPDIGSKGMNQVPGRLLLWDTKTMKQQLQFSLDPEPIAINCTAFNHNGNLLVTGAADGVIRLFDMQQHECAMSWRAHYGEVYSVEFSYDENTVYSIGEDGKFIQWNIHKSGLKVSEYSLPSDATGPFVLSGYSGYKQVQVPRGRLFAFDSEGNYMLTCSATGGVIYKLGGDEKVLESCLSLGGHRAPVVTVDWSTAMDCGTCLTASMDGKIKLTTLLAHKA
Genome polyprotein NS3 helicase domain: Genome polyprotein, NS3 helicase domain (Hepatitis C virus genotype 1b, UniProt Q9WMX2)
WD repeat-containing protein 91: WD repeat-containing protein 91 (Homo sapiens, UniProt A4D1P6)
UniProt Q64663, sequence (whole entry, unmodified, looked up): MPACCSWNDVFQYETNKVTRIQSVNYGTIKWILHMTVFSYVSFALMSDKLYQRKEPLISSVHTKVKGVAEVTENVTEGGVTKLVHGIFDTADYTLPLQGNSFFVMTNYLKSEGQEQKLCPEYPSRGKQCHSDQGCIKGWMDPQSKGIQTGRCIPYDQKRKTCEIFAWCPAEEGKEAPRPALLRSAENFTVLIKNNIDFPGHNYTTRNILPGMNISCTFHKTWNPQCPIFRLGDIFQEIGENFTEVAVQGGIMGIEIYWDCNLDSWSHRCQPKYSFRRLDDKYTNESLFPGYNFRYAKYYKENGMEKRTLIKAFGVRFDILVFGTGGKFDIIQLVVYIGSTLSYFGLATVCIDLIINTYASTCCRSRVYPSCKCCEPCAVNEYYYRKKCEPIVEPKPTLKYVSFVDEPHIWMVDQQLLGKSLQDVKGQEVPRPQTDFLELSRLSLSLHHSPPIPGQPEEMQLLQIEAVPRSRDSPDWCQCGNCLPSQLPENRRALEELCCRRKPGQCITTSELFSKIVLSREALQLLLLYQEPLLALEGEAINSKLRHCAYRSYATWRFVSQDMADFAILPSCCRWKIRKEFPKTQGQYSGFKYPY
UniProt Q14258, sequence (whole entry, looked up): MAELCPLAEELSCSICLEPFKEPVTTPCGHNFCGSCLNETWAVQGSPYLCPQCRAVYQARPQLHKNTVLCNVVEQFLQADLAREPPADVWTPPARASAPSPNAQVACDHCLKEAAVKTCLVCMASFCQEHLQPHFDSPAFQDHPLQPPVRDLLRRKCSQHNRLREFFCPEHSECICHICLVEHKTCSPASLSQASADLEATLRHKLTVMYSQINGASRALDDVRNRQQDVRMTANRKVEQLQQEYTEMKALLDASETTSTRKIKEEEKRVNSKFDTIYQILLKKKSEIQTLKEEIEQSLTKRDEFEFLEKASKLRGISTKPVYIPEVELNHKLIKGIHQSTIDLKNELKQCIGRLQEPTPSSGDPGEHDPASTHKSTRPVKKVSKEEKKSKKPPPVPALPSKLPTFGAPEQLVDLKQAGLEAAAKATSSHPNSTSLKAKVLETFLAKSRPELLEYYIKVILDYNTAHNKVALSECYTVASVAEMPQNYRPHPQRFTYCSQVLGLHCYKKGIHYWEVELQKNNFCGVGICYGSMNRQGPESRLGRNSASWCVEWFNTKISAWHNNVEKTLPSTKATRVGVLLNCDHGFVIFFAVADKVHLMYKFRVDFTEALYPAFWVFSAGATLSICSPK
UniProt P51575, sequence (whole entry, unmodified, looked up): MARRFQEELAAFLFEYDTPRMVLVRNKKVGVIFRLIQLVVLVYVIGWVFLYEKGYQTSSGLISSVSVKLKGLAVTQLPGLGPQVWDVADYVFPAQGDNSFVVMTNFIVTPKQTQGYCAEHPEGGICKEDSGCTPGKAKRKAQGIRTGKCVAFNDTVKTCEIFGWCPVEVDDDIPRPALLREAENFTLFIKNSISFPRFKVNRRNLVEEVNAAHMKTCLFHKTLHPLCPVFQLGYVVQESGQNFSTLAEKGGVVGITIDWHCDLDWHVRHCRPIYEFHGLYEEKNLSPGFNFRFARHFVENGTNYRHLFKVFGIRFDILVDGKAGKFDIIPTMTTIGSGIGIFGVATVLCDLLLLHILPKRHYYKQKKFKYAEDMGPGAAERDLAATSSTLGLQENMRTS
UniProt P02754, sequence (whole entry, looked up): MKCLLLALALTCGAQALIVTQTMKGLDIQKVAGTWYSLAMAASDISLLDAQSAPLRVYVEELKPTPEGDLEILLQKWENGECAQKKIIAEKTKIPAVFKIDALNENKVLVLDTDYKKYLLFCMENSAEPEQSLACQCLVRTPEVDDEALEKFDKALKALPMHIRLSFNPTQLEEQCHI
UniProt P22303, sequence (whole entry, looked up): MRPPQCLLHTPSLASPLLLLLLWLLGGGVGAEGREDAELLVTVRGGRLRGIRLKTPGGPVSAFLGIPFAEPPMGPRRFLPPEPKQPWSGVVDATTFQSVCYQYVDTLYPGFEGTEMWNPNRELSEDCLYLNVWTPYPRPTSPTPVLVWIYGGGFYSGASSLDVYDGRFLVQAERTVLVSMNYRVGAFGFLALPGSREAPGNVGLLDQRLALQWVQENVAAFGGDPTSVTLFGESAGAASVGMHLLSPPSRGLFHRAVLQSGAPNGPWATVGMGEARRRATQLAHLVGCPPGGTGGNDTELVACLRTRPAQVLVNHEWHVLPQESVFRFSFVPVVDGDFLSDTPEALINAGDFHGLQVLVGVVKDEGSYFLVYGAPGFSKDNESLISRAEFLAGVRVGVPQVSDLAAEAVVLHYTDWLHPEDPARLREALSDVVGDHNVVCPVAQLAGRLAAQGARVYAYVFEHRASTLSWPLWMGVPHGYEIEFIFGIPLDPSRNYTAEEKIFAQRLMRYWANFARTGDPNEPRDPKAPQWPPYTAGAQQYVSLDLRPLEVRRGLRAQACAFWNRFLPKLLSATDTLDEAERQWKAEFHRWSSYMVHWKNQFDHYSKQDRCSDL
UniProt C7FF04, sequence (whole entry, looked up): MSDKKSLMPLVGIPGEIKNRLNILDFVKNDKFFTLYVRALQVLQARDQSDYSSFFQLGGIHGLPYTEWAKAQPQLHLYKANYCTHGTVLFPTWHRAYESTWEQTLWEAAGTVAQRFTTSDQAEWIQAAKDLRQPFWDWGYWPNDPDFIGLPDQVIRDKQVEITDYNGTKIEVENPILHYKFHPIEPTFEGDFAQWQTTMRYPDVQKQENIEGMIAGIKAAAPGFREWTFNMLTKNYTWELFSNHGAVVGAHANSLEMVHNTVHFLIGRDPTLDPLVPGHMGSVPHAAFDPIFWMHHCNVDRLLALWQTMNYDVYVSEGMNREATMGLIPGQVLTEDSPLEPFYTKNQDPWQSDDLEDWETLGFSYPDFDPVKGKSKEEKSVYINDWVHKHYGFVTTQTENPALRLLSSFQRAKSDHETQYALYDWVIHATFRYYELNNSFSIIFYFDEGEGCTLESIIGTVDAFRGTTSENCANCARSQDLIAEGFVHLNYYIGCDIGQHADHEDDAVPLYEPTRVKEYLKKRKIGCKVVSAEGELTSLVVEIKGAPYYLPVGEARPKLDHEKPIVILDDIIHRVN

For Nc1ncnc2c1ncn2[C@@H]1O[C@H](COP(=O)(O)CP(=O)(O)OP(=O)(O)O)[C@@H](O)[C@H]1O, the specific binding was 1610 CCPM and 1960 CCPM (P2X purinoceptor 1 (P2RX1, Homo sapiens, UniProt P51575, L218T); saturation binding; HEK293; 25 nM).
CC[C@H](C)[C@H](NC(=O)[C@H](CCSC)NC(=O)[C@H](CCSC)NC(=O)[C@H](C)NC(=O)[C@H](C)NC(=O)[C@H](Cc1ccc(O)cc1)NC(=O)[C@H](C)NC(=O)[C@H](CCCCN)NC(=O)CNC(=O)[C@@H](NC(=O)[C@@H](NC(=O)[C@H](CCSC)NC(=O)[C@H](Cc1c[nH]cn1)NC(=O)CN)[C@@H](C)O)C(C)C)C(=O)N[C@@H](CCSC)C(=O)N[C@@H](CCC(=O)O)C(=O)N[C@@H](Cc1ccc(O)cc1)C(=O)N[C@@H](Cc1ccc(O)cc1)C(=O)N[C@@H](CCCNC(=N)N)C(=O)N[C@@H](CCC(N)=O)C(=O)N[C@@H](CO)C(=O)N[C@@H](CCCCN)C(=O)N[C@@H](C)C(=O)N[C@@H](CCCCN)C(=O)N[C@@H](CCCCN)C(=O)N[C@@H](CC(C)C)C(=O)N[C@@H](CCC(N)=O)C(=O)N[C@@H](C)C(=O)N[C@@H](CCSC)C(=O)N[C@@H](CCCNC(=N)N)C(=O)O has a stoichiometry of 0.93 ± 0.03 (CALM1 Ca2+-bound N-lobe; binding, isothermal titration calorimetry; pH 7.4, 15 °C, N-lobe, CaV2.1 IQ domain, added: Ca2+).
COc1ccccc1COc1ccc2c(c1)N(S(=O)(=O)c1cccc(C(F)(F)F)c1)CC2 — result for “maximum fold change”: 0.62 ± 0.16 (RORC; reporter gene, agonist, GAL4 luciferase reporter; added: ursolic acid 2 µM; reference: DMSO).
For O=C1C[C@@H](c2ccc(O)cc2)Oc2cc(O)cc(O)c21, the selectivity ratio was 1.29 (ESR1; array formation; PRL-HeLa; reference: EC50 ERβ over EC50 ERα).
The SPR response of Cc1ccc(C(O)c2cn(-c3ccc(C(=O)N4CCC(C#N)CC4)cc3)nn2)cc1 (stereo not drawn) is reported as -4.1 RU and -0.3 RU (WD repeat-containing protein 91 WD40 domain, residues 392–747; binding, SPR single-concentration screen; 45 µM).
With CC1=C(/C=C/C(C)=C/C=C/C(C)=C\C(=O)O)C(C)(C)CCC1 the inhibition was 1% (Genome polyprotein NS3 helicase domain; DNA binding, inhibitor; hepatitis C virus; 100 µM, added: Cy5-dT15 DNA).
O=S(=O)(NC1CCN(c2ncnc3c2nc(-c2ccccc2Cl)n3-c2ccc(Cl)cc2)CC1)c1ccc(F)c(F)c1 gave a selectivity ratio of over 5000 (CNR1 (Homo sapiens, UniProt P21554); binding, [3H]CP55940 displacement; reference: Ki CB2 over Ki CB1).
Under “mean decatenated DNA”, O=c1nc(SCc2cc(F)cc(C(F)(F)F)c2)nc(SCc2ccc3nc(OCCN4CCOCC4)ccc3c2)[nH]1 is recorded as 92.4% (TOP2A (Homo sapiens, UniProt P11388); decatenation; 7.8 µM).
N#CC1CCN(C(=O)c2ccc(C=Cc3ccc4ccccc4n3)cc2)CC1 gave a binding of 7% and 9% (WD repeat-containing protein 91 WD40 domain, residues 392–747; SPR; 45 µM).
For C=CCc1cccc(/C=N/NC(=O)CN2CCN(Cc3ccccc3)CC2)c1O, the inhibition was 1% (Genome polyprotein NS3 helicase domain; DNA binding, inhibitor; hepatitis C virus; 100 µM, added: Cy5-dT15 DNA).
Cc1ccc(N(C)C(=O)/C=C/c2ccco2)cc1 gave a Hill coefficient of 2 ± 0.6 (Voltage-dependent N-type calcium channel subunit alpha-1B (Homo sapiens, UniProt Q00975); calcium current, inhibitor; HEK293T).
For NC(=O)NC1NC(=O)NC1=O (stereo not drawn), the product formation was -0.22 µM (N-alpha-acetyltransferase 80 (NAA80, Homo sapiens, UniProt Q93015); substrate, DTNB; 2 mM, 30 min, 37 °C, added: acetyl-CoA 500 µM).
For O=C(COP(=O)(O)O)[C@@H](O)[C@H](O)[C@H](O)COP(=O)(O)O, “thermal stability ratio” read 0.455 and 0.533 and 0.875 (TRIM25 (Homo sapiens, UniProt Q14258); thermal proteome profiling; HepG2 cell lysate; concentration not given, 57 over 37 °C; reference: compound over control).
For Cl.c1ccc2nc(C3=NCCN3)ccc2c1, the inhibition was 0% (Genome polyprotein NS3 helicase domain; DNA binding, inhibitor; hepatitis C virus; 100 µM, added: Cy5-dT15 DNA).
With N#Cc1cccc(OCc2cn(-c3ccc(C(=O)N4CCC(C#N)CC4)cc3)nn2)c1 the binding was 22% and 35% (WD repeat-containing protein 91 WD40 domain, residues 392–747; SPR; 45 µM).
CC[C@H](C)[C@H](NC(=O)[C@H](CCCCN)NC(=O)CNC(=O)[C@@H](NC(=O)[C@@H](NC(=O)[C@H](CCSC)NC(=O)[C@H](Cc1c[nH]cn1)NC(=O)CN)[C@@H](C)O)C(C)C)C(=O)N[C@@H](Cc1ccc(O)cc1)C(=O)N[C@@H](C)C(=O)N[C@@H](C)C(=O)N[C@@H](CCSC)C(=O)N[C@@H](CCSC)C(=O)N[C@H](C(=O)N[C@@H](CCSC)C(=O)N[C@@H](CCC(=O)O)C(=O)N[C@@H](Cc1ccc(O)cc1)C(=O)N[C@@H](Cc1ccc(O)cc1)C(=O)N[C@@H](CCCNC(=N)N)C(=O)N[C@@H](CCC(N)=O)C(=O)N[C@@H](CO)C(=O)N[C@@H](CCCCN)C(=O)N[C@@H](C)C(=O)N[C@@H](CCCCN)C(=O)N[C@@H](CCCCN)C(=O)N[C@@H](CC(C)C)C(=O)N[C@@H](CCC(N)=O)C(=O)N[C@@H](C)C(=O)N[C@@H](CCSC)C(=O)N[C@@H](CCCNC(=N)N)C(=O)O)[C@@H](C)CC gave a stoichiometry of 0.87 ± 0.06 (CALM1 Ca2+-bound N-lobe; binding, isothermal titration calorimetry; pH 7.4, 15 °C, N-lobe, CaV2.1 IQ domain, added: Ca2+).
Cc1ccccc1C1CC(=O)c2c(C)nc(N)nc2C1 (stereo not drawn) has a fold enrichment of 0.895 (WD repeat-containing protein 91; binding, affinity selection mass spectrometry; reference: other proteins in batch).
The β-sheet content of CCCc1cc(=O)oc2cc(OCc3cc(=O)c(O)co3)ccc12 is reported as 16.9% (PPO3 (Agaricus bisporus, UniProt C7FF04); secondary structure of tyrosinase, CD spectroscopy; molar ratio 1:1).
O=C1CC[C@H](N2Cc3c(ccc4c3OCC43CCN(C[C@@H]4CCC5(CCN(c6ccc([C@@H]7c8ccc(O)cc8CC[C@@H]7c7ccccc7)cc6)CC5)OC4)CC3)C2=O)C(=O)N1: “ER level reduction” over 80% (Estrogen receptor (ESR1, Homo sapiens, UniProt P03372, D538G); degrader, western blot; MCF7 ESR1 D538G; 10 and 100 nM, 7 h).
CCc1c(C(=O)NCCc2ccc(N3CCCCC3)cc2)[nH]c2ccc(Cl)cc12 has an inhibition of 0% (Genome polyprotein NS3 helicase domain; DNA binding, inhibitor; hepatitis C virus; 100 µM, added: Cy5-dT15 DNA).
For CC1=CC(=O)C(C)=C(C)C1=O, the kcat was 9.07 ± 0.35 s⁻¹ (ancestral FSP1; oxidoreductase activity, substrate; added: co-substrate 100 µM fixed).
Cn1c(=O)c2[nH]cnc2n(C)c1=O has a potentiation of 98% (Glutamate receptor 2 (Homo sapiens, UniProt P42262); ion current, positive allosteric modulator, SyncroPatch patch clamp; HEK293; 10 µM).
For COc1cc(/C=C/C(=O)C(=Cc2ccc([N+](=O)[O-])cc2)C(=O)/C=C/c2ccc(O)c(OC)c2)ccc1O, the ΔS was -210 ± 7.78 J/(mol·K) (haemin; binding, isothermal titration calorimetry; pH 7.4, 37 °C).
With Nc1ncnc2c1ncn2[C@@H]1O[C@H](COP(=O)(O)OP(=O)(O)OP(=O)(O)O)[C@@H](O)[C@H]1O the normalized current was 1 (P2X purinoceptor 7 (P2rx7, Rattus norvegicus, UniProt Q64663, Q143A/R125A); ion current, agonist, two-electrode voltage clamp; Xenopus laevis oocytes; 1500 µM; reference: highest concentration response).
Cc1cc(O)c2c(c1)C(=O)c1cc(O)cc(O)c1C2=O has an inhibition of 0% (Genome polyprotein NS3 helicase domain; DNA binding, inhibitor; hepatitis C virus; 100 µM, added: Cy5-dT15 DNA).
With C=C1C(=O)O[C@@H]2C[C@@]3(C)CCCC(=C)[C@@H]3C[C@H]12 the activation was 0.76 fold (RORC; reporter gene, Gal4 hybrid reporter; 10 µM; reference: vehicle).
CC1=C[C@H](O)CC(C)(C)[C@H]1/C=C/C(C)=C/C=C/C(C)=C/C=C/C=C(C)/C=C/C=C(C)/C=C/C1=C(C)C[C@@H](O)CC1(C)C: “number of binding sites” 2.22 and ~2 (Beta-lactoglobulin (LGB, Bos taurus, UniProt P02754); fluorescence quenching; concentration not given, 298 K).
For CCn1c(=O)[nH]c2cc(C(=O)NC(c3ccc(F)cc3)c3cnn(C)c3)ccc2c1=O (stereo not drawn), the SPR response was 1.2 RU (WD repeat-containing protein 91; binding, SPR steady state; 0.05859 µM).
For CCN(CC)CCOc1ccc2c(c1)C(=O)c1cc(OCCN(CC)CC)ccc1-2, the Hill slope was 0.84 (ACHE (Homo sapiens, UniProt P22303); enzyme activity, colorimetric; top 100, bottom 0 fixed).
With CCN1CCCC1CNC(=O)c1cc(S(N)(=O)=O)ccc1OC (stereo not drawn) the maximal inhibition was 102 ± 1% (DRD3 (Homo sapiens, UniProt P35462); Go activation, antagonist, BRET).
With COc1cc(/C=C/c2cc(/C=C/c3ccc(O)c(OC)c3)n(-c3ccc(Cl)cc3Cl)n2)ccc1O the ΔS was -196 ± 3.7 J/(mol·K) (haemin; binding, isothermal titration calorimetry; pH 7.4, 37 °C).
For O=C(CCl)N1N=C(c2ccc(Br)cc2)CC1c1ccc(Br)cc1 (stereo not drawn), the FP signal was 93% (14-3-3 protein sigma, with ERα phosphopeptide (SFN, Homo sapiens, UniProt P31947); binding, fluorescence polarization; covalent ligand screen, added: phosphorylated ERalpha peptide; reference: control).
The remaining activity of O=C(O)c1ccc(Nc2ncc3c(n2)-c2ccc(Cl)cc2C(c2c(F)cccc2F)=NC3)cc1 is reported as 98% (human DYRK2(h); kinase activity; 1 µM).
The binding of N#CC1CCN(C(=O)c2ccc(-c3cccc4cccnc34)cc2)CC1 is reported as -38% and -35% (WD repeat-containing protein 91 WD40 domain, residues 392–747; SPR; 45 µM).
With COc1cc(/C=C/c2ccc(O)cc2)cc(OC)c1 the -T∆S was 0.41 kcal/mol (O-methyltransferase (Sorghum bicolor, UniProt A0A1B6PFV1); ITC; one set of sites, added: SFG).
For O=C(O)c1ccccc1Nc1ccccc1, the inhibition was 0% (Genome polyprotein NS3 helicase domain; DNA binding, inhibitor; hepatitis C virus; 100 µM, added: Cy5-dT15 DNA).
For N#Cc1cccc2c1CC[C@H]2NC(=O)c1ccc(CNc2cccc3c2CCCC3)cc1, the SPR response was 3.8 RU and -3.3 RU (WD repeat-containing protein 91 WD40 domain, residues 392–747; binding, SPR single-concentration screen; 45 µM).
With NC[C@@H]1O[C@H](O[C@H]2[C@@H](O)[C@H](O[C@@H]3[C@@H](O)[C@H](N)C[C@H](N)[C@H]3O[C@H]3O[C@H](CO)[C@@H](O)[C@H](O)[C@H]3N)O[C@@H]2CO)[C@H](N)[C@@H](O)[C@@H]1O the inhibition was 0% (Genome polyprotein NS3 helicase domain; DNA binding, inhibitor; hepatitis C virus; 100 µM, added: Cy5-dT15 DNA).
CC1(C)CC2(C)OC(=O)NC2(C)c2ccccc21 (stereo not drawn) has a fold enrichment of 1.64 (WD repeat-containing protein 91; binding, affinity selection mass spectrometry; reference: other proteins in batch).
With C=CC(=O)N1CCC(COCC(=O)N2CCN(c3nc(-c4cnc(N)nc4C(F)F)nc(N4CCOC[C@@H]4C)n3)CC2)CC1 the remaining binding was 91% (CIT (Homo sapiens, UniProt O14578); KINOMEscan; 1 µM; reference: DMSO control).
For NC/C(=C\F)COc1cccc(Cn2c(=S)[nH]c(=O)c3[nH]cnc32)c1, the H2O2 concentration was -0.103 µM (Myeloperoxidase (MPO, Homo sapiens, UniProt P05164); H2O2 consumption, inhibitor, H2O2 electrode; 10 µM, 0.3 s).
With O=c1cc(-c2ccc(O)cc2)oc2cccc(O)c12 the selectivity ratio was 0.5 (ESR1; array formation; PRL-HeLa; reference: EC50 ERβ over EC50 ERα).
